Experimental data from different studies.
Every numbered part comes from another study and shows a few of its results, in no order. Changes are numbered by the printed parent chain.
Chain of UniProt P17106 (whole entry, looked up): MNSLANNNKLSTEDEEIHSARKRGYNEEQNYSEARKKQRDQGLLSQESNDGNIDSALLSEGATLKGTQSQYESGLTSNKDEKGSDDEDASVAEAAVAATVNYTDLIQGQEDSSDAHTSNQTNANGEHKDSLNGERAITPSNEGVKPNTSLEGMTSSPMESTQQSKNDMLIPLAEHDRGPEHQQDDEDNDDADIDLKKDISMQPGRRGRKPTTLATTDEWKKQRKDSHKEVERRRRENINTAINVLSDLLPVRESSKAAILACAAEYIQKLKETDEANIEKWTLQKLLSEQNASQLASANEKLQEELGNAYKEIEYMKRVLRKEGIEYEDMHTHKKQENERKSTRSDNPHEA

Study 1
Target: CCNA1, cyclin fold, Cln2 fusion (human)
Method: yeast growth competition, sequencing
Sample: yeast
Notes: strong parent motif
Reference: not given
Reading: higher = stronger binding
Endpoint: normalised enrichment score
Parent: viral docking peptide; TSVRRALFTGGSD
S2Q: 1.03
S12Y: 1.12
A6P: 0.2
R4H: 0.131
R5G: 0.23
F8C: -0.0331
V3G: -0.291
F8M: 0.228

Study 2
Target: 5-hydroxytryptamine receptor 2A (HTR2A, Homo sapiens, UniProt P28223)
Chain of UniProt P28223 (whole entry, looked up): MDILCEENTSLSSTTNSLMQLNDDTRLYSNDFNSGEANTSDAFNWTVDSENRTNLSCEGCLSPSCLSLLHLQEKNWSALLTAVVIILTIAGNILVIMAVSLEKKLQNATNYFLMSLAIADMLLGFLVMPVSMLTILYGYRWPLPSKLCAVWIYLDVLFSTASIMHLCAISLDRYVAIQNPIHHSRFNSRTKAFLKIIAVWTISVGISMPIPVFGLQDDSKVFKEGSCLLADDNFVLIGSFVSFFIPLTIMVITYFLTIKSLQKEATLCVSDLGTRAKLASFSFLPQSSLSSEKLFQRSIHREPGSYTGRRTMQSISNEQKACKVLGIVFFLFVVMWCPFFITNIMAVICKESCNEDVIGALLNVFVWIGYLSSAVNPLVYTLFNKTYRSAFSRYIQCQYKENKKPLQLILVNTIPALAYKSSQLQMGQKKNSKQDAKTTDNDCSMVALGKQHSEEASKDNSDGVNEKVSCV
Read-out: ligand displacement
Concentration: 10 µM
Endpoint: inhibition
CN1CCN(c2ccnc(NCCc3ccccc3)n2)CC1: 72.9%
CC1=C(C#N)C(c2ccc3c(c2)c(NC(=O)c2ccccc2C)nn3C)C(C#N)=C(C)N1: 8.41%
CS(=O)(=O)N1CCCC(NC(=O)[C@H](CCC2CCCCC2)NC(=O)c2ccc(CNC(=O)c3cnc4ccccn34)cc2)C1 (stereo partly shown): 3.03%
CN1CCN(c2cnc3c(C4CCN(C(=O)c5ccc(OC(F)(F)F)cc5N)CC4)ncnc3c2)CC1: 4.33%
CN(C)C(=O)c1sc2nc(N3CCC(S(C)(=O)=O)CC3)cc(C(F)(F)F)c2c1N: -1.79%
CCOc1cc(N2C3COCC2CN(C(=O)[C@H]2C[C@H](O)CN2c2ccc(Cl)cc2)C3)ccc1Cl: 6.74%
CNC(=N)NCCC[C@H](NC(=O)[C@H](CC(C)C)NC(=O)NNC(=O)[C@H](Cc1ccccc1)NC(=O)[C@H](CO)NC(=O)[C@H](CC(N)=O)NC(=O)[C@@H](Cc1ccncc1)NC(=O)[C@H](N)Cc1ccc(O)cc1)C(=O)N[C@@H](Cc1ccccc1)C(N)=O: -11.2%
c1ccc(C2CCN(c3cnc4c(N5CCOCC5)nccn34)CC2)cc1: 13.1%
CNC(=O)Nc1ccc2c(c1)CC[C@]21OC(=O)N(CC(=O)N(Cc2ccc(F)cc2)[C@@H](C)C(F)(F)F)C1=O: 34.6%
CC(=O)N1CCC(c2ccc(C(=O)NC3=NCCN3)cc2C(F)(F)F)CC1: -11%
C[C@H](c1cccc(C#N)c1)n1cc(Cl)cc(C(N)=O)c1=N: -3.17%
CS(=O)(=O)NCC[C@H](NC(=O)c1cncc2c1cnn2-c1ccc(F)cc1)c1ccnc(S(C)(=O)=O)c1: 11.8%
COc1cc(-c2cn(C3CCc4c(F)cccc4N(CC(F)(F)F)C3=O)nn2)ccc1-n1cnc(C)c1 (stereo not shown): 11.5%
NS(=O)(=O)c1cc(NC(=O)Cc2ccccc2)ccc1Oc1cccc(Cl)c1: -2.5%
Cc1cc2c(-c3ccco3)cnc(N[C@H]3CCN(C)C[C@@H]3C(=O)NC3CCCCC3)c2[nH]c1=O: 2.71%
Cn1cncc1[C@@](O)(COc1ccc(C#N)cc1-c1ccc(OC(F)(F)F)cc1)c1ccc(C#N)cc1: -4.18%
CCC(=NO)C(C)=Cc1ccc(F)c(C)c1: 40.8%

Study 3
Target: HLA class I histocompatibility antigen, B alpha chain, allele B*46:01 (Homo sapiens, UniProt P01889)
Read-out: peptide-MHC binding
Form: peptide
Concentration: concentration not given
Endpoint: binding
FSLPAQLL: inactive
LVQPGRSL: inactive
KAFSPEVI: inactive

Further values, each from its own experiment
ADRB1: Beta-1 adrenergic receptor (ADRB1, Homo sapiens, UniProt P08588)
Chain of UniProt P08588 (whole entry, looked up): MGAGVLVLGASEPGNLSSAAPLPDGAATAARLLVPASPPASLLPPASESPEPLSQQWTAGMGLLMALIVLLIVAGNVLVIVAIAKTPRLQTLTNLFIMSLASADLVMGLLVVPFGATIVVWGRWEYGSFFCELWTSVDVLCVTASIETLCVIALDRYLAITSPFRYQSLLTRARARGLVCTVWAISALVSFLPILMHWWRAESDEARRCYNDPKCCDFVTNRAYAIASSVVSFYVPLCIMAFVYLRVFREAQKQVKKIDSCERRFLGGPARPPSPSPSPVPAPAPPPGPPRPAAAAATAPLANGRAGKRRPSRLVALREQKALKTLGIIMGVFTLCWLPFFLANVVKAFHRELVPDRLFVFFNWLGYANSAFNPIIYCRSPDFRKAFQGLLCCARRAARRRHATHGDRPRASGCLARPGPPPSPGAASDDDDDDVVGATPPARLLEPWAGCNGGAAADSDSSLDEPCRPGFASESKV
CCTAACTACTATAGTGACGTGACATAGCTTCGTACAGTCTTGATTCGCTTGACGCTGCTG  fluorescence intensity (Centromere-binding protein 1, full length, N-terminal tag (CBF1, Saccharomyces cerevisiae, UniProt P17106, residues 1-351); protein-binding microarray; double-stranded DNA, one strand shown, in vitro; 0.8 µM, whole 60-bp probe, no competitor; higher = stronger binding): 723 a.u.
Cc1cc(C)c(C#N)c(N2C[C@@H]3CCN(C)[C@@H]3C2)n1  remaining compound (human, microsomes or S9; 2 µM, 0.5 h): 71.3%
FC(F)(F)c1cccc(C2=CCN(CCc3ccc4ccccc4c3)CC2)c1  Emax (ADRB1; agonist): 45.4%
O=c1c2ccccc2nc(-c2ccccc2)n1-c1ccncc1  remaining compound (human, microsomes or S9; 2 µM, 0.5 h): 93.8%
CN[C@@H](C)[C@H](O)c1ccccc1  Emax (ADRB1; agonist): 87.2%
CC(C)(C)c1cc(C=C(C#N)C#N)cc(Br)c1O  viability (HH; 2 µM, 48 h; reference: untreated): 116%

Repeated from above (study 2):
Cc1cc2c(-c3ccco3)cnc(N[C@H]3CCN(C)C[C@@H]3C(=O)NC3CCCCC3)c2[nH]c1=O: 2.71%
NS(=O)(=O)c1cc(NC(=O)Cc2ccccc2)ccc1Oc1cccc(Cl)c1: -2.5%
